Measurements of several laboratories.
Protocols differ between the studies behind these lines. Values joined by “and” are separate records of one study, mostly repeats; a detail may differ.
RPS6KA6 N-terminal kinase domain: Ribosomal protein S6 kinase alpha-6, N-terminal kinase domain (RPS6KA6, Homo sapiens, UniProt Q9UK32)
RPS6KA6 C-terminal kinase domain: Ribosomal protein S6 kinase alpha-6, C-terminal kinase domain (RPS6KA6, Homo sapiens, UniProt Q9UK32)
RPS6KA6: Ribosomal protein S6 kinase alpha-6 (RPS6KA6, Homo sapiens, UniProt Q9UK32)

SMILES	target	assay	conditions	how to read	quantity	value
Cc1ccc(-c2c(/C=C(\C#N)C(=O)NC(C)C)n(CCCO)c3ncnc(N)c23)cc1	RPS6KA6 N-terminal kinase domain	binding, competition with immobilised ligand	1 µM	–	remaining binding	93%
CNC(=O)C1CCN(c2cc(C)c(F)cc2NC(=O)c2ccc(-c3cc(O)ccc3C)c(C)c2)CC1	RPS6KA6 C-terminal kinase domain	binding, competition with immobilised ligand	1 µM	–	remaining binding	90%
CC(C)=CC1OC(C)(C)C2C=C3C(=O)C(Cl)=CC(O)C3C3C(O)C4OC4C(=O)C132 (stereo not shown)	RPS6KA6 C-terminal kinase domain	cell-free assay, competition with immobilised ligand	10 µM	–	remaining binding	69%
C=CC(=O)Nc1cccc(-c2cnc3[nH]cc(C(=O)NC(C)(C)C)c3n2)c1	RPS6KA6	kinase activity	0.1 µM	–	inhibition	21% and 20%
O=C=[N][Ru-4]123([n]4c5ccc(O)cc5c5c6c(c7cc(F)c[n+]1c7c54)C(=O)NC6=O)[S+]1CC[S+]2CC[S+]3CC1 (stereo not shown)	RPS6KA6	enzyme activity	100 nM, human enzyme, added: 10 µM ATP	reference: untreated	remaining activity	22%
COc1cc(Nc2nc(C)cc(-c3cnn4nc(OC)ccc34)n2)cc(C(F)(F)F)c1	RPS6KA6 N-terminal kinase domain	binding, competition with immobilised ligand	1 µM	–	remaining binding	70%
Cc1cnc2nc1Nc1cccc(c1)COC/C=C/COCc1cc(ccc1OCCN1CCOCC1)N2	RPS6KA6 N-terminal kinase domain	cell-free assay	0.1 µM	–	remaining signal	78%
Cc1nc2c(F)cc(-c3nc(Nc4ccc(CNC(=O)CCCCCCC(=O)NO)cc4)ncc3F)cc2n1C(C)C	RPS6KA6	enzyme activity, inhibitor	1 µM	–	inhibition	68%
COc1c(Cl)cccc1Nc1c(-c2ccncc2C#C[C@@]2(C)CCCN2C(=O)/C=C/CN(C)C)[nH]c2c1C(=O)NCC2	RPS6KA6 C-terminal kinase domain	binding, competition with immobilised ligand	3 µM	–	remaining binding	23%
C=CC(=O)N1Cc2nc(-c3cc(-c4cc(Cl)cnc4Cl)c(F)cc3F)n(-c3ccncn3)c2C1	RPS6KA6	cell-free assay, inhibitor	1 µM	–	inhibition	2.8%
CNC1C[S+]2CC[S+]3CC[S+](C1)[Ru-4]321([N]=C=S)[n]2c3ccc(OC)cc3c3c4c(c5cc(F)c[n+]1c5c32)C(=O)NC4=O (stereo not shown)	RPS6KA6 C-terminal kinase domain	KinomeScan	0.1 µM	reference: untreated	remaining binding	58%
O=C(Cc1ccc(OCc2ccccc2)cc1)NC1(C(=O)O)CCN(C(=O)c2ccc(-c3cccc(Cl)c3)cc2)CC1	RPS6KA6	enzyme activity, inhibitor	10 µM	–	activity vs control	100%
CNC(=O)C[C@H](Cc1ccc(C#N)cc1)NC(=O)c1cc(-c2ccc(CN[C@H](C)c3ccc(C)cc3)o2)ccc1Cl	RPS6KA6	enzyme activity, inhibitor	1 µM	–	activity vs control	59%
C=CC(=O)N1CCc2ccc(-n3c(=O)ccc4cnc5ccc(-c6cnn(C)c6)cc5c43)cc21	RPS6KA6 C-terminal kinase domain	KINOMEscan	1 µM	reference: DMSO control	remaining binding	66%
C=CC(=O)N1CCCC(n2c(=O)c3ncccc3n(Cc3ccc(Oc4ccccc4)cc3)c2=O)C1 (stereo not shown)	RPS6KA6 C-terminal kinase domain	binding, competition with immobilised ligand	1 µM	–	remaining binding	88%
NC(=O)C[C@H]1CCc2sc3ncnc(O[C@H]4CC[C@H](N5CCOCC5)CC4)c3c21	RPS6KA6	enzyme activity, inhibitor	10 µM	–	inhibition	13%
CN1CCN(Cc2ccc(-c3ccc(CO[C@H]4CCC[C@@H]4NC(=O)c4cc(-c5cnn(C)c5)cnc4N)cc3)cc2)CC1	RPS6KA6	enzyme activity, inhibitor	0.1 µM	–	inhibition	-7%
Cc1cccc(O[C@H]2CCC[C@@H](C(C)CNCc3ccncc3)C2)c1 (relative stereo)	RPS6KA6	kinase activity, kinome panel screening	10 µM	–	inhibition	-3%
COc1cc(Nc2nccc(-c3cnn4nc(OC)ccc34)n2)cc(C(F)(F)F)c1	RPS6KA6 N-terminal kinase domain	binding, competition with immobilised ligand	1 µM	–	remaining binding	94%
CCn1cc(C(=O)O)c(=O)c2c(N)c(F)c(NC3CCCCC3)cc21	RPS6KA6	kinase activity	0.1 µM, added: ATP at Km	–	inhibition	-12.5%
CCN1CCN(Cc2ccc(C(=O)Nc3ccc(C)c(NCc4cnc5[nH]ccc5c4OC)c3)cc2C(F)(F)F)CC1	RPS6KA6 N-terminal kinase domain	binding, competition with immobilised ligand	1 µM	–	remaining binding	81%
Nc1ncc2c(n1)-c1c([nH]c3ccc(C4=CCOCC4)cc13)CCC2	RPS6KA6 C-terminal kinase domain	binding, competition with immobilised ligand	1 µM	–	remaining binding	100%
